# Results pooled from the literature.
# Each line is one published result; not all experiments were run side by side. “And” joins repeats or separate records; there may be more than shown. ± gives the spread as reported.
Compound,test,system,conditions,quantity,value
[2H]C([2H])([2H])C1(C([2H])([2H])[2H])NC(=O)N(c2ccc(F)c(C(C)(F)F)c2)C1=O,,"Sprague-Dawley rat, male and female","oral, single dose",MTD,~100 mg/kg
O=C1NC2(CC2)COc2ncc(F)cc2[C@H]2COCCN2c2ccn3ncc1c3n2,,"Sprague-Dawley rat, female, serum","oral, 5 mg/kg/day, end of recovery, 4-week repeated-dose toxicity",albumin,44.7 ± 4.5 g/L
CCc1nn(C)c2nc(-c3ccc(C(=O)O)cc3)nc(NCc3ccccc3)c12,,NSG mice,"dose not given, day 5 of treatment",body weight,23.1 g and 23.3 g and 22.3 g and 23.5 g
C=Cc1c(C)c2cc3nc(c(CC(=O)[O-])c4[n-]c(cc5nc(cc1[n-]2)C(C)=C5CC)c(C)c4C(=O)[O-])C(CCC(=O)[O-])C3C.[Cu+2].[Na+].[Na+].[Na+] (centres unmarked),,"Wistar rat, male","oral, 250 mg/kg daily, 28 days",serum ALT,54.3 ± 5.54 U/L
CC(C)(CCCC/C=C/CCCCCC(C)(C)C(=O)O)C(=O)O,,"beagle dog, both sexes","oral, dose not given, 1 h",plasma concentration,27500 ng/mL
CSCC[C@H](NC(=O)CNC(=O)[C@H](CCCCN)NC(=O)[C@H](CC(C)C)NC(=O)[C@@H]1CCCN1C(=O)[C@H](CO)NC(=O)[C@H](Cc1c[nH]cn1)NC(=O)[C@H](Cc1c[nH]c2ccccc12)NC(=O)[C@H](CCCNC(=N)N)NC(=O)[C@H](CC(C)C)NC(=O)[C@H](CCCNC(=N)N)NC(=O)[C@H](Cc1c[nH]c2ccccc12)NC(=O)[C@H](CS)NC(=O)CCCCCNC(=O)CN1CCN(CC(=O)O)CCN(CC(=O)O)CCN(CC(=O)O)CC1)C(=O)O [copper-64 labelled],ex vivo biodistribution,"BALB/c nude mice, ovaries","intravenous, dose not given, 2 h, Huh-7 tumour-bearing",tissue uptake,1.23 %ID/g
CN1Cc2cc(Cl)ccc2-n2c(nnc2C2CCN(c3cccc(F)n3)CC2)C1,,"Sprague-Dawley rats male, pituitary","intravenous, 0.03 mg/kg, 60 min",concentration,5.27 ± 1.14 ng/mL
CC(C)C[C@H](N)C(=O)N1CCC[C@H]1C(=O)N[C@@H](Cc1ccccc1)C(=O)N[C@@H](Cc1ccccc1)C(=O)N[C@@H](CC(=O)O)C(=O)N[C@@H](CC(=O)O)C(=O)N[C@@H](C)C(=O)N[C@@H](Cc1c[nH]cn1)C(=O)N[C@@H](CCCCN)C(N)=O,RP-HPLC,50% human serum,"100 µM, 24 h, 37 °C",intact peptide remaining,40%
O=C(CN1C(=O)C2(CCN(C(=O)c3ccc4[nH]ncc4n3)CC2)c2c(Br)cccc21)NCC(F)(F)F,,PAMPA,,Papp,1.94 ×10⁻⁶ cm/s
CC[C@H](C)[C@H](NC(=O)[C@H](C)NC(=O)[C@H](CCCCN)NC(=O)[C@H](CC(C)C)NC(=O)[C@@H](N)Cc1ccccc1)C(=O)N[C@@H](CCCCN)C(=O)N[C@@H](CCCCN)C(=O)N[C@@H](Cc1ccccc1)C(=O)NCC(=O)N[C@@H](CCCCN)C(=O)N[C@@H](CCC(=O)O)C(=O)N[C@@H](Cc1ccccc1)C(=O)N[C@@H](CCCCN)C(=O)N[C@@H](CCCCN)C(=O)N[C@H](C(=O)NCC(=O)N[C@@H](C)C(=O)N[C@@H](CCCCN)C(=O)N[C@@H](CC(C)C)C(=O)N[C@@H](CCCCN)C(=O)O)[C@@H](C)CC,,human red blood cells,"4 mg/L, 1 h",hemolysis,0.633%
CC(C)C[C@@H](NC(=O)[C@@H](CCCNC(=N)N)NC(=O)[C@@H](Cc1c[nH]cn1)NC(=O)[C@@H](Cc1c[nH]c2ccccc12)NC(=O)[C@@H](Cc1c[nH]cn1)NC(=O)[C@@H](Cc1ccccc1)NC(=O)[C@H](NC(=O)[C@@H](Cc1ccc(O)cc1)NC(=O)CNC(=O)CNC(=O)CCOCCOCCOCCNC(=O)CN1CCN(CC(=O)O)CCN(CC(=O)O)CC1)[C@H](C)O)C(=O)N[C@H](CC(N)=O)C(=O)N1CCC[C@@H]1C(=O)O [gallium-68 labelled],OLINDA/EXM,"adult female human, ULI wall",extrapolated from C57BL/6 mice,organ absorbed dose,0.014 ± 0.000451 mSv/MBq
[Ga+3].[O-]c1ccc(Br)c2cccnc12.[O-]c1ccc(Br)c2cccnc12.[O-]c1ccc(Br)c2cccnc12,,oil/water,pH 5.4,log P,1.45
CC(C)[C@@H]1NC(=O)CNC(=O)[C@H](CC(N)=O)NC(=O)[C@H](CCCNC(=N)N)NC(=O)[C@H](Cc2ccc(O)cc2)NC(=O)[C@H](C(C)C)NC(=O)[C@@H](NC(=O)[C@@H](NC(=O)[C@H](CC(N)=O)NC(=O)[C@H](Cc2c[nH]c3ccccc23)NC(=O)[C@H](C)NC(=O)[C@H](Cc2ccccc2)NC(=O)CNC(=O)[C@H](CCCCN)NC(=O)[C@H](Cc2ccccc2)NC(=O)[C@H](Cc2ccccc2)NC(=O)[C@H](CCCCN)NC(=O)OCC2c3ccccc3-c3ccccc32)C(C)C)CSSC[C@@H](C(=O)N[C@@H](Cc2c[nH]cn2)C(=O)N[C@@H](CCCNC(=N)N)C(=O)N[C@@H](CCCNC(=N)N)C(=O)N[C@@H](C)C(=O)N[C@@H](CC(N)=O)C(N)=O)NC(=O)[C@H](C(C)C)NC(=O)[C@H](CCCNC(=N)N)NC1=O,,"ICR mice, serum","intraperitoneal, 5 mg/kg, day 5",calcium,1.36 ± 0.03 mmol/L
CC[C@H](C)[C@H](NC(=O)[C@H](CCCCN)NC(=O)CNC(=O)[C@H](CC(C)C)NC(=O)[C@H](Cc1ccccc1)NC(=O)[C@H](CCCCN)NC(=O)[C@H](CO)NC(=O)[C@H](Cc1ccccc1)NC(=O)[C@H](Cc1c[nH]c2ccccc12)NC(=O)[C@H](CCC(N)=O)NC(=O)[C@@H](NC(=O)[C@H](Cc1ccccc1)NC(=O)CCCCCNC(=O)CN1CCN(CC(=O)O)CCN(CC(=O)O)CCN(CC(=O)O)CC1)C(C)C)C(=O)N[C@@H](CCC(=O)O)C(=O)N1CCC[C@H]1C(=O)N[C@@H](CC(=O)O)C(=O)N[C@H](C(=O)N[C@@H](CO)C(=O)N[C@@H](CCC(N)=O)C(=O)N[C@H](C(=O)N[C@@H](CCC(N)=O)C(=O)N[C@@H](CC(=O)O)C(=O)N1CCC[C@H]1C(=O)N[C@@H](CC(N)=O)C(=O)N[C@@H](CC(=O)O)C(=O)N[C@@H](CCC(N)=O)C(=O)N[C@@H](Cc1ccc(O)cc1)C(=O)N[C@@H](CCC(=O)O)C(=O)N1CCC[C@H]1C(=O)N[C@@H](Cc1ccccc1)C(=O)O)C(C)C)C(C)C [copper-64 labelled],dynamic PET,"mouse both sexes, CT26 tumour, untreated, tumour","intravenous, 100 µCi/mouse, 450 s",SUVmean,0.6 SUV

# A few entries again:
Compound,test,system,conditions,quantity,value
O=C1NC2(CC2)COc2ncc(F)cc2[C@H]2COCCN2c2ccn3ncc1c3n2,,"Sprague-Dawley rat, female, serum","oral, 5 mg/kg/day, end of recovery, 4-week repeated-dose toxicity",albumin,44.7 ± 4.5 g/L
CC[C@H](C)[C@H](NC(=O)[C@H](CCCCN)NC(=O)CNC(=O)[C@H](CC(C)C)NC(=O)[C@H](Cc1ccccc1)NC(=O)[C@H](CCCCN)NC(=O)[C@H](CO)NC(=O)[C@H](Cc1ccccc1)NC(=O)[C@H](Cc1c[nH]c2ccccc12)NC(=O)[C@H](CCC(N)=O)NC(=O)[C@@H](NC(=O)[C@H](Cc1ccccc1)NC(=O)CCCCCNC(=O)CN1CCN(CC(=O)O)CCN(CC(=O)O)CCN(CC(=O)O)CC1)C(C)C)C(=O)N[C@@H](CCC(=O)O)C(=O)N1CCC[C@H]1C(=O)N[C@@H](CC(=O)O)C(=O)N[C@H](C(=O)N[C@@H](CO)C(=O)N[C@@H](CCC(N)=O)C(=O)N[C@H](C(=O)N[C@@H](CCC(N)=O)C(=O)N[C@@H](CC(=O)O)C(=O)N1CCC[C@H]1C(=O)N[C@@H](CC(N)=O)C(=O)N[C@@H](CC(=O)O)C(=O)N[C@@H](CCC(N)=O)C(=O)N[C@@H](Cc1ccc(O)cc1)C(=O)N[C@@H](CCC(=O)O)C(=O)N1CCC[C@H]1C(=O)N[C@@H](Cc1ccccc1)C(=O)O)C(C)C)C(C)C [copper-64 labelled],dynamic PET,"mouse both sexes, CT26 tumour, untreated, tumour","intravenous, 100 µCi/mouse, 450 s",SUVmean,0.6 SUV
